Measurements of several laboratories.
Numbered parts are unrelated; each lists some results of a single study.

Study 1
Target: POU, POU domain (Salpingoeca helianthica)
Technique: Spec-seq
Molecule type: double-stranded DNA, one strand shown
Sample: in vitro
Tested at: not given
Setting: whole probe, mean of replicates
Baseline: not given
Direction: lower = stronger binding
Constant ends, left off below: GAGTCGTCTCGTCAGCACAT … CCGTAGAGCACTCAGGTC
Construct (chain): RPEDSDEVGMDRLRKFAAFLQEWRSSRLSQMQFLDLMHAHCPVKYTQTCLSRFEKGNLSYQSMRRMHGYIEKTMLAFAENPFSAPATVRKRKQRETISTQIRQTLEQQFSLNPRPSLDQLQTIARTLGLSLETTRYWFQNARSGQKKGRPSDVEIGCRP
Strand	relative binding energy [ln ratio]
TAGGAT	0.738
GCCGAT	1.52
CCCCAT	1.41
GCATGT	1.28
GCCGTT	1.28
TCTGAT	0.948
AATAAT	-0.297
GCACGC	1.28

Study 2
Target: RNA binding protein fox-1 homolog 2, RRM domain, GST-SBP tag (RBFOX2, Homo sapiens, UniProt O43251-10, residues 100-194)
Technique: RNA Bind-n-Seq
Molecule type: RNA
Sample: in vitro
Tested at: 365 nM
Setting: natural RNA segment, single round, ends assumed
Baseline: no-protein control
Direction: higher = stronger binding
Residues (chain): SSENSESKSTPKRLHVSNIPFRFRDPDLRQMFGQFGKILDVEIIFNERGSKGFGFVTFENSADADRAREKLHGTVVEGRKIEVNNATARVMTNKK
Strand	RBNS enrichment (R)
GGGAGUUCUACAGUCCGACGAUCUGCCUCUCUUAGUCUUCCCCCUAGAGCUAGGCGCCUACCAGGUGUAUAUAUGUAGCAUACUUUGGGGGACUGCGAUCAGAAGUGAGGUGGAGGGACUGGCACCGGUUAACUGGAAUUCUCGGGUGCCAA	0.322
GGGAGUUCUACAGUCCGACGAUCUGGACUCCAGCCCUUCAGGAGGCAAGAGGAAAAAAGUGCUCUCGGUUCCCCAGGGGAUCUCUGGGAAAGACACUACCGCAGCCACCGGACUCUUGGCGGAUCGGUCCAGUUGGAAUUCUCGGGUGCCAA	0.331
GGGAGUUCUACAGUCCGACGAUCGGACUUGUAAGUCUGCAGGCUGGAGAAGUCAGACCCUUCCCGCCUGGCACUCCUUGCUUUCAUCACCUUGACUUCUUCCUCUCAGUAGUGCCAAUCUCUCUAGGACCCUUUGGAAUUCUCGGGUGCCAA	0.569
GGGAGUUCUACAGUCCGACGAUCUCUUGCACUGACUCUGUGGAGGGGGUCUUCAUUCACUAAACUGACCCAGGAUGGAACACGAAACCACACGUGCCGUGACCUUUAGGUUUAUGAGUAGACAGUGUUAAUUUUGGAAUUCUCGGGUGCCAA	0.269
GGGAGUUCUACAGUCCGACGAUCGCCUGCCCUGCUCCCUCUCUGGCUCCCAGAAGAUCACAUGCUACCUCUGUCUCAUUUACAAAUUGGGGUAUAUCCUAAGUCAUGUCAAACUGCCGAUUUCAGGACUGGGAUGGAAUUCUCGGGUGCCAA	0.464
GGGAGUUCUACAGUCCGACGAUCAAUUUUUUAACUUAAUGUGUUACUACAAAGAUUUGCAGAUCUUUAAUCAAGCACUAUGUUAAUACUGUAAUAUCAGAAUACUAUGUUGCAUUAUUUAAAAUGUUCAAAUUUGGAAUUCUCGGGUGCCAA	0.775
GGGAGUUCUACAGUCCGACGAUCAGCCUCCCCAGGACCUAGGGCGCCUGCCCUCUGCUGGCUAGGACCGGGCCCAGCCCAGCCCUUCCUGAAGCCAGAAGCGUUGCUGAGUGUGUUCCCUGUAACUGCCCCAUUGGAAUUCUCGGGUGCCAA	0.382
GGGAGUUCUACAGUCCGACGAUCGUUUUCUUGAGCAGAGGGAUGGAACAGAGGGUGAGAGAGGCAGUGGCCGUCUCCACCUCAGCUCCUGCUCCCUCUGCAUCAGAGCCCUUCCUUUCUUGGGGGAUGGGCCUUGGAAUUCUCGGGUGCCAA	0.429

Study 3
Target: TAR DNA-binding protein 43, full length, His tag (TARDBP, Homo sapiens, UniProt Q13148, residues 1-414)
Technique: RNA Bind-n-Seq
Molecule type: RNA
Sample: in vitro
Tested at: 20 nM
Setting: 6-mer, flanks averaged, single round
Added: 150 mM KCl
Baseline: input library
Direction: higher = stronger binding
Strand	6-mer enrichment (R)
GCCGCG	1.51
AGAAUC	0.626
CCAUGU	0.673
UUAGAC	0.607
AGUUCU	0.553
GGGCCC	1.63
UGAUCA	0.613
GUAGCA	0.884

Other studies, line by line
Structure (SMILES)	species	sample	tested at	time	endpoint	result
NCC1=CCCN(c2nc3c(cc2F)c(=O)c(C(=O)O)cn3-c2ncc(F)cc2Cl)C1	mouse	microsomes or S9	2 µM	0.5 h	remaining compound	43%

Repeated from above (study 2):
Strand	RBNS enrichment (R)
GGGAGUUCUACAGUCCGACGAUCAGCCUCCCCAGGACCUAGGGCGCCUGCCCUCUGCUGGCUAGGACCGGGCCCAGCCCAGCCCUUCCUGAAGCCAGAAGCGUUGCUGAGUGUGUUCCCUGUAACUGCCCCAUUGGAAUUCUCGGGUGCCAA	0.382
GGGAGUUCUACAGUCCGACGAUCGUUUUCUUGAGCAGAGGGAUGGAACAGAGGGUGAGAGAGGCAGUGGCCGUCUCCACCUCAGCUCCUGCUCCCUCUGCAUCAGAGCCCUUCCUUUCUUGGGGGAUGGGCCUUGGAAUUCUCGGGUGCCAA	0.429
